Published values from different studies.
Protocols differ between the studies behind these lines. Several values in a cell are separate wells, animals, samples, runs or records. ± gives the spread as reported.

`CC(=O)O[C@H]1CC[C@]2(C=O)[C@H]3CC[C@]4(C)[C@@H](C5=CC(=O)OC5)CC[C@]4(O)[C@@H]3CC[C@]2(O)C1` has an activity score of 7.7 (human iPSC-derived cardiomyocytes; MyBP-C/MYH ratio, plate-normalised SD score; concentration not given, primary screen; direction not given).
`CC[C@H](C)[C@H](NC(=O)[C@H](CO)NC(=O)[C@H](CC(C)C)NC(=O)[C@H](Cc1ccccc1)NC(=O)CN)C(=O)N[C@@H](CC(C)C)C(=O)N[C@@H](CCCCN)C(=O)N[C@@H](CCCCN)C(=O)N[C@H](C(=O)N[C@@H](CC(C)C)C(=O)N[C@@H](CCCCN)C(=O)N[C@H](C(=O)N[C@@H](CCSC)C(=O)N[C@@H](C)C(=O)N[C@@H](Cc1c[nH]cn1)C(=O)N[C@@H](CCSC)C(=O)N[C@@H](CCCCN)C(=O)N[C@@H](CS)C(N)=O)C(C)C)C(C)C` has an EC50 of 12000 nM (human red blood cells; pH 5.5; baseline: Triton X-100).
`CC(C)N1CCC(NC2CCN(c3cccc(-c4cc5cc(F)ccc5[nH]4)c3)CC2)CC1` has a CC50 of 6230 nM (HCC 2998).
`CN1CCN(S(=O)(=O)c2cc([N+](=O)[O-])ccc2N(CCOS(C)(=O)=O)CCOS(C)(=O)=O)CC1` — result for “IC50 fold change”: 196 (sample DC T-ALL PDX cells; cell viability; ex vivo; 48 h, together with: AKR1C3 inhibitor; baseline: with inhibitor over alone).
`O=c1cc(-c2ccccc2)oc2c(O)c(O)ccc12`: “neurite process number” 3.5 to 3.6 (induced SH-SY5Y Aβ-GFP cells; 5 µM).
With `Cn1cc(C2=C(c3cn(C4CCN(Cc5ccccn5)CC4)c4ccccc34)C(=O)NC2=O)c2ccccc21` the cell index was 97.7% (iCell Cardiomyocytes (hiPSC-derived); cellular impedance; concentration not given, 24 h; baseline: control).
With `COc1cc(CCC[P+](c2ccccc2)(c2ccccc2)c2ccccc2)c(OC)c2c1OCO2.[I-]` the LC50 was greater than -4 log M (UO-31; SRB).
`O=C1C(Cl)=C(Cl)C(=O)C(Cl)=C1Cl` has an activity score of 11.7 (human iPSC-derived cardiomyocytes; MyBP-C/MYH ratio, plate-normalised SD score; concentration not given, primary screen; direction not given).
For `COc1c(CCC[P+](c2ccccc2)(c2ccccc2)c2ccccc2)cc2c(c1OC)OCO2.[I-]`, the GI50 was -4.93 log M (UO-31; SRB).
The EC50 of `CS(=O)(=O)c1ccc(-c2nnc(/C=C/c3nnc(-c4ccc(C#N)cc4)o3)n2-c2ccccc2Cl)nc1` is reported as 31.6 nM (Apc Q1405X mutant organoids; organoid area, live-cell imaging; mouse small intestinal organoids; 6 days, Tnks1 genotype Tnks1+/-).
For `O=S(=O)(c1ccc(O)cc1)c1ccc(O)cc1`, “S phase cells” read 8.46 ± 1.89% (HepG2 spheroids; Hoechst flow cytometry; 10 µM, 24 h).
The optical density of `CC1=C(O)C(=O)C=C2C1=CC=C1[C@@]2(C)CC[C@@]2(C)[C@@H]3C[C@](C)(C(=O)O)CC[C@]3(C)CC[C@]12C` is reported as 1.11 a.u. and 1.15 a.u. and 0.997 a.u. and 1.01 a.u. and 0.922 a.u. (HepG2; cell viability, CCK-8; 1 µM; higher = more viable cells).
The plating efficiency of `Cc1cnc2ccc3c(nc(N)n3C)c2n1` is reported as 47% (BALB/c 3T3; colony formation; 0.1 µM).
For `CCn1cnc2c(Nc3cccc(Cl)c3)nc(N[C@@H]3CCCC[C@@H]3N)nc21`, the inhibition was 72% (HeLa expressing Ub(G76V)-GFP; Ub(G76V)-GFP degradation, cycloheximide chase; 12 µM).
With `CN1CCN(C2(CNC3CCN(c4cccc(-c5cc6cc(F)ccc6[nH]5)c4)CC3)CCC2)CC1` the GI50 was 1710 nM (UO-31).
`COc1c(C)c2c(c(O)c1C/C=C(\C)CCC(=O)O)C(=O)OC2` has an IC50 of 1000 nM (T24; cell proliferation; bladder cancer).
